# Measured values collected from several papers.
# A part holds a random share of what one study measured.

# Sample 1 — method: RNA Bind-n-Seq; molecule type: RNA; medium: in vitro; tested at: 365 nM; relative to: no-protein control; direction: higher = stronger binding
# Target: RNA binding protein fox-1 homolog 2, RRM domain, GST-SBP tag (RBFOX2, Homo sapiens, UniProt O43251-10, residues 100-194)
# Setting: natural RNA segment, single round, ends assumed
# Constant ends, left off below: GGGAGUUCUACAGUCCGACGAUC … UGGAAUUCUCGGGUGCCAA
# Target sequence (chain): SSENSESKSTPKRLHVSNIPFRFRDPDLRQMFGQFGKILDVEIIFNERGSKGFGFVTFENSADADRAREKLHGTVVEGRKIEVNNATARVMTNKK
Strand,RBNS enrichment (R)
UAAAAACUAGUAGGCUGUGGAGUGCGCUUCCUGUUUGUGUCAUCUGGUCGUAGAACCUUUUCCAAACAGAAGCAUCUGCCUUUGGCUGUUCUGUGACCUUUGAAGCCAGU,0.365
UUUGGCCUGUUGAAUUUGCUGAAGAACAUCACCUAAAGUCUGCACACGAGCCCAUUUUUACCAAGAUUUGAUCAGUGUCUUUACUGAGCUGGAAGCCUCUGAAAGUUAUU,0.447
UCGGUUCCCGAGGCCUGGCCUUUCCCUCUCCUGCUGAGAACCAGAACCCACCAGGAGCACCACAGAGUCCUCCUCUUGGAAGGCAGAACUCCCUGAAAUCUGGAAUCAGG,0.316
GGGGUGGUCAACCUGUGUCCCCUCUGAGCCGUUAUGCCAAAGGUCACUAAGGACAUUUAGAAUCCCCAUCCAUCCAUCCAUCCAUCCAUCCAUCCAUCCAUUCAUCCAUC,0.948
UACCUGCUCCCCGCUCCUGUUGCCAGCAGCACUCACUGCACUCCUUUGUCAUAUACUCUGCAUCACUGUCAUACUCACAACUUCGUGAAUAAAGUUGUGUGCUUUAUUCG,0.98
AGUUGCUCCGUGGGCUCUCUAGGGGCUCUGGGCUCUGCCUGCUGCAGUGUCCUCAGUGAGCUCUCUGAGGAGCAGGCUUUCCAUGUCAGCUAUCUGGAUAUUGGUAUGGC,0.422
GGUCUCAGGCAAACAGUUGUUGAAGCUUGCUUCUGUGGCAUUUCUGAAUUGUGGCAGAGCUUAGAUCCUGCACCCAGGGGUCUUUUUUUCAAACAGCAUCUUGCUCAGUU,0.326
GCACCCCAGACUUGACUGUGUAAAUAAGAGUGUUUCAUUCAAAUGUUAAUAAACUUUACACAGUAUAUAGACACAUUUUCUGCAAUGUACUGACAUCAGUGUCCAAUAUA,0.506
CCCUUAUGCCUCUUCCAUGGGAACAAAUACUGUGCAGAUGUUUGUAAGUUAAACAUAAGACACAGGGGCUGUUGCUUUUGAACAGAACCCUAUAUUACUCUCCUGGGAUC,0.721
GAUGACAACUUGGUUUAUGCAUGAAUAUUGCAGUAUUUCCAUAUAGCAAAAUAACAUUUCUACCCAGGAUAAUAGUCACAGUUUUCCAGGGAGGGAAUGAUAUAAUUUUC,4.58
UUGUAAUUUGGGGAUCUUGAUUUCACCGUUGUUGGUGAAGGAAAUUUUCAAUAAAUAUGCAUAACCUACAAAGCUGGCAUGUGUCGUGCCCCAGCCCCCUGCACCUUCCC,1.09
GACCCUCUCCCUAAGGUUGGAUCAGGGAACUGGGUAAGACCUGCAGAAGGUUUCUCUGAGUCACUCACCAGGCCCUACAAGUCCGCUUUCUUGCAGGCUGCCUCUUUUAU,0.406

# Sample 2 — method: aptamer microarray, sandwich; molecule type: DNA with 2'F-ANA; medium: in vitro; tested at: 200 nM; added: Cy3 exosite-II aptamer, 400 nM; direction: higher = stronger binding; strand: GGTTGGTGTGGTTGG
# Target: Prothrombin, mature alpha-thrombin (F2, Homo sapiens, UniProt P00734)
# Setting: whole 15-mer aptamer, many near background
Modification,mean fluorescence intensity
2'F-ANA at 1 2 3 4 5 7 8 9 11 12 15,212 a.u.
2'F-ANA at 1 2 4 5 9 10 11 12 13 14 15,48.2 a.u.
2'F-ANA at 1 3 9 10,87.7 a.u.
2'F-ANA at 4 5 7 9 10 14 15,73.9 a.u.
2'F-ANA at 1 2 3 5 7 8 11 12 13 15,77.8 a.u.
2'F-ANA at 1 7 9 10 11,58.4 a.u.
2'F-ANA at 1 4 5 6 7 9 11 12 13 14 15,49.2 a.u.
2'F-ANA at 2 4 5 6 8 12,218 a.u.
2'F-ANA at 3 4 5 7 10 11 13,51.1 a.u.
2'F-ANA at 1 2 3 4 5 8 10 13 14 15,137 a.u.
2'F-ANA at 1 2 4 5 6 7 13 14 15,48.7 a.u.
2'F-ANA at 2 3 5 8 9 10 11,53.1 a.u.
2'F-ANA at 3 5 9 13 14,115 a.u.
2'F-ANA at 4 5 6 7 9 10 11 12 14,60.5 a.u.
2'F-ANA at 1 3 5 8 9 10 11 14,44 a.u.
2'F-ANA at 1 4 6 13 15,80.2 a.u.
2'F-ANA at 1 5 8 11 14 15,46.8 a.u.
2'F-ANA at 1 2 6 7 8 10 11 13,56.2 a.u.
2'F-ANA at 1 2 4 6 8 9 11 12 13 15,150 a.u.
2'F-ANA at 2 3 5 6 8 9 10 11 13 15,58.6 a.u.
2'F-ANA at 1 2 8 11 13,146 a.u.
2'F-ANA at 2 5 6 7 9 10 11 12 13,53.3 a.u.
2'F-ANA at 1 4 6 7 8 13 14 15,49.6 a.u.
2'F-ANA at 2 3 6 8,812 a.u.
2'F-ANA at 1 3 7 8 9 11 13,305 a.u.

# Sample 3 — method: protein binding microarray; molecule type: double-stranded DNA, one strand shown; medium: in vitro; tested at: not given; relative to: not given; direction: higher = stronger binding
# Target: Histone acetyltransferase KAT6A, winged helix 1, GST fusion (KAT6A, Homo sapiens, UniProt Q92794, residues 1-85)
# Setting: 8-mer, flanks averaged, mean of 2 arrays, mostly near background
# Target sequence (chain): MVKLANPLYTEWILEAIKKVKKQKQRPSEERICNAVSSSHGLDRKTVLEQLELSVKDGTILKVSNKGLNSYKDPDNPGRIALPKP
Strand,E-score
CATGGAGC,-0.0112
GATACTCC,-0.08
ATCCCTAC,-0.0591
GAGGCAGA,-0.183
AGCGTCTG,0.135
GGAACGGA,0.233
ATCGGGTC,0.231
CTAATACC,0.0602
AGATGCAA,-0.175
ACGATCGA,-0.113
GCATAAGA,-0.0502
ACCCCTGG,-0.149
AGAAGCAT,-0.0712
AGTGGCGA,0.00416
GGCCTGCA,-0.0606
TCAATGCA,-0.226
CCTAGTAG,-0.0832
AGCCAGCG,0.0998

# Sample 4 — method: RNAcompete; molecule type: RNA; medium: in vitro; tested at: 20 nM; setting: 7-mer, probes averaged, single round; relative to: mean of 7-mers; direction: higher = stronger binding
# Target: PABPC1L2, full length, GST fusion (mouse, UniProt A0ABA7IW68)
# Target sequence (chain): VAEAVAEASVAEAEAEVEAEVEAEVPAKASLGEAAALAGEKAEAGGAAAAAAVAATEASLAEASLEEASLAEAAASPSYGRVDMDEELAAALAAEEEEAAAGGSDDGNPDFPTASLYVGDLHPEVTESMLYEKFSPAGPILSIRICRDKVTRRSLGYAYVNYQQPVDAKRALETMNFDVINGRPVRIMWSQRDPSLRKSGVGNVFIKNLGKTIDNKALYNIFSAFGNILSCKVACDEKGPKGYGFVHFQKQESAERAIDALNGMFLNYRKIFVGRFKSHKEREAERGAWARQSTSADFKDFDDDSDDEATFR
Strand,7-mer Z-score
AGCCCGU,-0.364
GAUUCCC,-0.389
CUUAUCU,-0.374
GAGGCAA,0.476
UCUCGGG,-0.0917
CGACGAA,0.095
GCAACUG,-0.135
GAGCAAU,0.108
GUACGGU,-0.0355
AUAACGU,-0.115
GUAAGCC,-0.356
UAGUUGA,-0.309
GCUAUGU,-0.155
GCGACGA,0.385
GAGCGUU,-0.335
UACGUGG,0.00979
UAUAAUU,-0.144
UCUAAUC,-0.248
UCCACUU,-0.291
AAAUCCG,0.421
GAUAGGA,0.0352

# Sample 5 — method: universal PBM; molecule type: double-stranded DNA, one strand shown; medium: in vitro; tested at: not given; direction: higher = stronger binding
# Target: Sal-like protein 4, full length isoform B (SALL4, Homo sapiens, UniProt Q9UJQ4-2, residues 1-616)
# Setting: 8-mer, flanks averaged, mean of replicates
# Target sequence (chain): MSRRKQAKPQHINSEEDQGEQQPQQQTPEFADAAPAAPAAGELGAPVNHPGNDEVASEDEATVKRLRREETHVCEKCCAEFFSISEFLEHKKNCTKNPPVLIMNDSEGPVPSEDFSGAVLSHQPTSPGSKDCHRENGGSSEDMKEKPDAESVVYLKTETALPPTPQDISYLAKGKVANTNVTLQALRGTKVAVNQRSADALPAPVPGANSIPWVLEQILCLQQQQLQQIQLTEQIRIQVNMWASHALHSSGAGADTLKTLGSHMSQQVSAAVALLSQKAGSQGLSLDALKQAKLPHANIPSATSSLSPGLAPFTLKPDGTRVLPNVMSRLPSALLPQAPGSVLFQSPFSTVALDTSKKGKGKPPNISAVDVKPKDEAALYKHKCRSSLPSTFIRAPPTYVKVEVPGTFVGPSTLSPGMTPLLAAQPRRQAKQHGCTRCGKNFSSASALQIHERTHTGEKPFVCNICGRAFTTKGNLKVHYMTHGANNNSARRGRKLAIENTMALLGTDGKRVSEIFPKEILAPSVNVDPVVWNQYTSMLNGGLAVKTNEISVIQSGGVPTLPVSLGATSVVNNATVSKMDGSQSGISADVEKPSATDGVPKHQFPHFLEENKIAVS
Strand,E-score
ACGATAGA,0.0816
AGAACGCC,-0.208
CACAGCAA,0.0836
CCAGAGAA,-0.0142
GCCCTGGA,-0.295
CCCCTCAG,-0.376
AGAATACA,0.192
AGATAAAT,0.23
GAATAAAC,0.276
GACCGCTA,-0.172
GCGTCAGC,-0.21
GTTTCGGA,-0.032
ACAGTCAC,-0.0796
CCCTAAGC,-0.153
AAAACAAT,0.326
AAATATTC,0.412
AGAACAAG,0.198
CATCTCTC,-0.0984
AATACGTG,0.163
GCTATTTA,0.264
TCGCCTCA,0.0237
CGCACGTA,-0.0187
TCTCTACA,0.126
ACGAGCTC,-0.271
CGGATACA,0.0195
